Measured values gathered from unrelated publications.
Lines come from different studies, so protocols differ.
Target: Mitogen-activated protein kinase kinase kinase kinase 1 (MAP4K1, Homo sapiens, UniProt Q92918)

SMILES | effect on | mode | method | concentration | baseline | measurement | value
Nc1ncc(-c2cc(-c3cnn(CC(F)(F)F)c3)ncc2F)nc1C(=O)NC1CNCC(F)C1 (stereo not drawn) | enzyme activity |  |  | 1 µM | DMSO control | remaining activity | 80.8%
C=CC(=O)N1CCCC(n2c(=O)c3ncccc3n(Cc3ccc(Oc4ccccc4)cc3)c2=O)C1 (stereo not drawn) | cell-free assay |  | competition with immobilised ligand | 1 µM |  | remaining binding | 92%
CNC1C[S+]2CC[S+]3CC[S+](C1)[Ru-4]321([N]=C=S)[n]2c3ccc(OC)cc3c3c4c(c5cc(F)c[n+]1c5c32)C(=O)NC4=O (stereo not drawn) |  |  | KinomeScan | 0.1 µM | untreated | remaining binding | 94%
COc1c(Cl)cccc1Nc1c(-c2ccncc2C#C[C@@]2(C)CCCN2C(=O)/C=C/CN(C)C)[nH]c2c1C(=O)NCC2 | binding |  | competition with immobilised ligand | 3 µM |  | remaining binding | 100%
O=C(Cc1ccc(OCc2ccccc2)cc1)NC1(C(=O)O)CCN(C(=O)c2ccc(-c3cccc(Cl)c3)cc2)CC1 | enzyme activity | inhibitor |  | 10 µM |  | activity vs control | 110%
COc1cc(Nc2nccc(-c3cnn4nc(OC)ccc34)n2)cc(C(F)(F)F)c1 | binding |  | competition with immobilised ligand | 1 µM |  | remaining binding | 88%
C=CC(=O)N1CCc2ccc(-n3c(=O)ccc4cnc5ccc(-c6cnn(C)c6)cc5c43)cc21 |  |  | KINOMEscan | 1 µM | DMSO control | remaining binding | 98%
Nc1ncc2c(n1)-c1c([nH]c3ccc(C4=CCOCC4)cc13)CCC2 | binding |  | competition with immobilised ligand | 1 µM |  | remaining binding | 93%
NC(=O)C[C@H]1CCc2sc3ncnc(O[C@H]4CC[C@H](N5CCOCC5)CC4)c3c21 | enzyme activity | inhibitor |  | 10 µM |  | inhibition | 8%
CNC(=O)C[C@H](Cc1ccc(C#N)cc1)NC(=O)c1cc(-c2ccc(CN[C@H](C)c3ccc(C)cc3)o2)ccc1Cl | enzyme activity | inhibitor |  | 1 µM |  | activity vs control | 106%
CC(C)=CC1OC(C)(C)C2C=C3C(=O)C(Cl)=CC(O)C3C3C(O)C4OC4C(=O)C132 (stereo not drawn) | cell-free assay |  | competition with immobilised ligand | 10 µM |  | remaining binding | 79%
CCN1CCN(Cc2ccc(C(=O)Nc3ccc(C)c(NCc4cnc5[nH]ccc5c4OC)c3)cc2C(F)(F)F)CC1 | binding |  | competition with immobilised ligand | 1 µM |  | remaining binding | 2.8%

Repeated from above:
SMILES | effect on | mode | method | concentration | baseline | measurement | value
C=CC(=O)N1CCc2ccc(-n3c(=O)ccc4cnc5ccc(-c6cnn(C)c6)cc5c43)cc21 |  |  | KINOMEscan | 1 µM | DMSO control | remaining binding | 98%
